# Published values of several laboratories.
# Each numbered part is a random draw from the data of one study; scales do not carry over between parts. Positions count from the first letter of the parent shown.

# Set 1
# Target: CCNA2, cyclin fold, Cln2 fusion (human)
# Method: yeast growth competition, sequencing
# Sample: yeast
# Setting: weak parent motif
# Baseline: not given
# Reading: higher = stronger binding
# Parent: FOXM1 docking peptide (human); PHLARPIKVESPP
Change,normalised enrichment score
E10A,-0.487
P12A,-1.47
L3A,-0.115
S11A,-0.592
P1A,-0.681
I7A,-0.564

# Set 2
# Target: Interferon regulatory factor 5, full length, phosphomimetic (IRF5, Homo sapiens, UniProt Q13568-2, residues 1-514, K96S/S451D/S453D/S456D/S462D)
# Method: protein-binding microarray
# Molecule type: double-stranded DNA, one strand shown
# Sample: in vitro
# Concentration: 250 nM
# Setting: 60-bp whole probe
# With: salmon DNA 0.4 mg/ml
# Baseline: random background probes
# Reading: higher = stronger binding
# Constant ends, left off below: GCCTAGCAC … GTCTTGATTCGCTTGACGCTGCTG
Strand,log fluorescence
TCATGTTGCAAATATTGCACTGTGCTA,0.0088 z-score
TTAGTACTGGGGACTGGGTTAGTGCTA,-0.167 z-score
GACGATATCTGGTTTCGAGACGTGCTA,4.16 z-score
GACGGTATCCTACTGCTGCCGTGCTAG,-0.259 z-score
GACGGTATCCTTCTCCAGACGTGCTAG,0.0661 z-score
TTAGGTATCCTTGTCCTTTAGTGCTAG,-0.164 z-score
AGATTTATCAAATGTGGGATTGTGCTA,0.0616 z-score
GGCGGTTTCGACTTTCGGGACGTGCTA,8.1 z-score
TTAGGTTTCGGACTGGGGTAGTGCTAG,5.13 z-score
AAGGGTTAAAATTTTGCTTCGTGCTAG,-0.0933 z-score
ATAATTTTTCTAGTGGTTGCGTGCTAG,1.02 z-score
GGGTCTTGCAGTATGGAAAGGTGCTAG,-0.269 z-score
TTAGATATCAGAATCGATTAGTGCTAG,1.34 z-score
TTAGCTTTCCTTATCCTTTAGTGCTAG,1.4 z-score
GGTTTTCTGGTTCCCATTCCGTGCTAG,2.01 z-score
GACGGACTCGGACTGGGGACGTGCTAG,-0.115 z-score
TCAGGTATCGGTATCGGTTAGTGCTAG,8.94 z-score
TTAGGTATCCTCCTGCTTTAGTGCTAG,-0.355 z-score
GACGGTATCTACTATCGGGACGTGCTA,2.33 z-score
TCTCTTTTTGCTTTCTTTTAGTGCTAG,2.98 z-score
TTAGGAATGGGTATCGGTTAGTGCTAG,4.7 z-score
TTAGGACAGGGACTGGGTTAGTGCTAG,-0.402 z-score
TTAGGTTTCCTTTCCCTTTAGTGCTAG,1.96 z-score
TTAGATATTAGTATCGATTAGTGCTAG,8.02 z-score
GCCGGTTTCGACTATCGGGACGTGCTA,7.76 z-score

# Set 3
# Target: Fragile X messenger ribonucleoprotein 1, C-terminal low-complexity region (Fmr1, Mus musculus, UniProt P35922)
# Method: RNA Bind-n-Seq
# Molecule type: RNA
# Sample: in vitro
# Concentration: 200 nM
# Setting: whole 134-nt RNA, ends assumed
# With: 150 mM KCl
# Baseline: input library
# Reading: higher = stronger binding
# Constant ends, left off below: GGGAGUUCUACAGUCCGACGAUC … UGGAAUUCUCGGGUGUCAAGG
Strand,log2 enrichment
UCAAGUCCUGUGCUACACAUCGUAUGUACCGAAUCGGUUUGGUUUGGGUUUGGGGAAAGUAUUAUGUUACGCCGUUCGGAUCUGCACUUC,-0.355
UGCUUCUCUAUGGAAAGGACUUUCCCCCAAGCUGGACGAGGCAUUAAGAAGGAUAGAGGACUCCAGCAGGCUGACUCUACACUUCAUCAU,0.0624
UACUAUCAAACAAUCGGAAACCACGCGUCCUACUACAAAGAUGCUCUGCGGUUUUUGGGCUGUGUUGACAUCAAGGAUCUACCAGGUAAC,-1.39
UCAAGUCCUGUGCUACACAUCGUAUGUACCGAAUCGGUUGGGUUGGGGUUGGGGAAAGUAUUAUGUUACGCCGUUCGGAUCUGCACUUCC,0.932
ACCAUGCAGGUGGGCAUCUUUGGGAAGUGGGGCAAGGGGGGGAUAGGGAGGGGGGUACCACUUUGGGAACAGGUGGUCCCAGGUCGUUUC,0.854
UCAAGUCCUGUGCUACACAUCGUAUGUACCGAAUCGGGUUUGGUUUGGUUUGGGAAAGUAUUAUGUUACGCCGUUCGGAUCUGCACUUCC,-0.521
UGGGCAAUGUGUCGGCUGCAUGCACGAGCCAGGAACUGCGCAGCCUCUUCGAGCGCCGCGGACGCGUCAUCGAGUGUGACGUGGUGAAAG,-1.15
CUCAAGUCCUGUGCUACACAUCGUAUGUACCGAAUCGGGCCGGCCGGGGCCGGGAAAGUAUUAUGUUACGCCGUUCGGAUCUGCACUUCC,-0.137
AGUCCUGUGCUACACAUCGUAUGUACCGAAUCGGAAAAGGGGAAAAGGGGAAAAGGGAAAGUAUUAUGUUACGCCGUUCGGAUCUGCACU,0.0906
UAAAUUUAGAGGAGGAUCUGAUGGAUAUGGCAGUGGACGUGGAUUUGGGGAUGGCUAUAAUGGGUAUGGAGGAGGACCUGGAGGUGGCAA,0.206
CCUGUGCUACACAUCGUAUGUACCGAAUCGGGGUGGGGAAAAAAAGGGGAAAAAAAGGGGAAAGUAUUAUGUUACGCCGUUCGGAUCUGC,0.0325
GUCCUGUGCUACACAUCGUAUGUACCGAAUCGGGGCCCCCGGGCCCCCGGGCCCCCGGAAAGUAUUAUGUUACGCCGUUCGGAUCUGCAC,-0.705
UAACUUUAGAGGAGGAUCUGAUGGAUUUGGCAGUGGACGUGGAUUUGGGGAUGGCUAUAAUGGGUAUGGAGGAGGACCUGGAGGUGGCAA,0.276
UGAAGACUAUGAGACUGCUCUAUCAGGAAAGGAAGCCCUUUCGGCUGCGCUGCGCUCACAAAACCUCACCAAGAGUACAGAGAACCACAG,0.403

# Set 4
# Target: RNA binding protein fox-1 homolog 2, RRM domain, GST-SBP tag (RBFOX2, Homo sapiens, UniProt O43251-10, residues 100-194)
# Method: RNA Bind-n-Seq
# Molecule type: RNA
# Sample: in vitro
# Concentration: 365 nM
# Setting: natural RNA segment, single round, ends assumed
# Baseline: no-protein control
# Reading: higher = stronger binding
# Constant ends, left off below: GGGAGUUCUACAGUCCGACGAUC … UGGAAUUCUCGGGUGCCAA
# Residues (chain): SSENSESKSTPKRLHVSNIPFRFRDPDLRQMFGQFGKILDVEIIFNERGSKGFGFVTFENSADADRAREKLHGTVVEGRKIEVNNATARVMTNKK
Strand,RBNS enrichment (R)
CCACGCCUUCCCGCUCGGCGGCAAAGGUGCUGACAUCUAUGUGCUAGGCUGCCUCAUCACGCCACUGGAGUCCACACUUGAAUUUGGGCAGCUACCACGGGUCUGCCAUG,0.334
UGGCCAGGACUGGUAGCAACAGAGCAUGGCUGAGAAGGAGCAGCGUGCUUCUUGGUGUCUGAGCAGACAGACCCUGCCAGAGUAAACUGGCUGAGGGGAGUGUCCAUCAU,3.19
AGAGGCUCUGUUUUCCACUGAAGCUUUGUUGGAGAAAGAGAAUAUGAAAAUUACACAUUUUAUAAUUUUUAGAUGAGAAAAUACCACUAGCAGAAUAGCUUUGUGCUAUU,0.779
AGGAUCUCAUAGUUAUUUUAUUAGGCCAGCCUUAUUCCAUGUCGGCAAGAGGUUUCUUGUGGAAAUUAUGUCCUUUCUGAGAGGAGCUGGGGAUUAGAUGCUCCUGCAUU,0.4
AGAAAUGCCAGUCUUCCACUACCCCCUCCCUGCCAUCUUUUCUUCUGCUACUUUGGGGAGUUGAUGGCCAGGAAAGAAGCCAGCACAGGGUUAAAGUAACUCCUGGCAUU,0.837
GUGGCGAAUGGCAGCACAGCGCGGUGGCUGGGUCUGCACACUGGCCUCUGCAGCCAGAUUUCUAUAUUGGGAGUUUUUUAAAAAGACAUUUCAUAGCCAACAAGAAUCAG,0.411
UCUCUCUAAUAUAUCUGAGUUAUUGCUCAUUUAAAACUGUUAAGUCCAGUAUAAUUUUCCCUGAUAUGAAAAAAUGUGCAUUUUUUUCACUUAGCAACAAAGUACCUUCU,1
UCCAAAUUCACAGCAGUGGAUCCCAUGCCACUUUGCUGUCCUGAGCACCCCAGACUUGACUGUGUAAAUAAGAGUGUUUCAUUCAAAUGUUAAUAAACUUUACACAGUAU,0.237
AGGGAAACCUUGAAUUGGGGUGUGUUCUCUAAUCACUUUCCACUGUCUGAGCUUUCCUGACCCCUGUAUUGUAUCCUUGCUCCCAGGGCUCCCUUCAUGGCUUGUGAACU,0.546
UUUGACAGAGAAAUAUUGUUUAGACUGCAUUAUUUUUGUUCGACUCCAAAAGAUUUGCCAAAUAACAAGCGCACAUAGUGUGCACUGUUGGAGACUGAAAAUGCCUACUG,0.398
UUUCUCUGUAGAGCAGCCACACGUUGUAUAAACAUAAACUGUAUGUGCAGUUAUUUAAAUUUGUUUCUGUCAAAUUAAUCAUUUUUGUUGGACGAUUCAGUGGCGGGGGG,0.721
CUAGAGUGGUUACAUUUAAUCAGGCAGUAAGAUAAUUUGGGUUCUUGAGUUGUUUUGGAGUAAUAUCCCACAACUGGGGUAGGAAGCUCAGGACUUUUUUCUUUAAAGCU,0.495

# Excerpt of the above (set 3):
Strand,log2 enrichment
CUCAAGUCCUGUGCUACACAUCGUAUGUACCGAAUCGGGCCGGCCGGGGCCGGGAAAGUAUUAUGUUACGCCGUUCGGAUCUGCACUUCC,-0.137
AGUCCUGUGCUACACAUCGUAUGUACCGAAUCGGAAAAGGGGAAAAGGGGAAAAGGGAAAGUAUUAUGUUACGCCGUUCGGAUCUGCACU,0.0906
UAAAUUUAGAGGAGGAUCUGAUGGAUAUGGCAGUGGACGUGGAUUUGGGGAUGGCUAUAAUGGGUAUGGAGGAGGACCUGGAGGUGGCAA,0.206
CCUGUGCUACACAUCGUAUGUACCGAAUCGGGGUGGGGAAAAAAAGGGGAAAAAAAGGGGAAAGUAUUAUGUUACGCCGUUCGGAUCUGC,0.0325
GUCCUGUGCUACACAUCGUAUGUACCGAAUCGGGGCCCCCGGGCCCCCGGGCCCCCGGAAAGUAUUAUGUUACGCCGUUCGGAUCUGCAC,-0.705
UAACUUUAGAGGAGGAUCUGAUGGAUUUGGCAGUGGACGUGGAUUUGGGGAUGGCUAUAAUGGGUAUGGAGGAGGACCUGGAGGUGGCAA,0.276
